Results collected from several papers.
A part holds a random share of what one study measured.

Sample 1 — technique: protein binding microarray; molecule type: double-stranded DNA, one strand shown; sample: in vitro; concentration: not given; reference: not given; reading: higher = stronger binding
Target: Histone acetyltransferase KAT6A, both winged helices, GST fusion (KAT6A, Homo sapiens, UniProt Q92794, residues 1-181)
Notes: 8-mer, flanks averaged, mean of 2 arrays, mostly near background
Target sequence (chain): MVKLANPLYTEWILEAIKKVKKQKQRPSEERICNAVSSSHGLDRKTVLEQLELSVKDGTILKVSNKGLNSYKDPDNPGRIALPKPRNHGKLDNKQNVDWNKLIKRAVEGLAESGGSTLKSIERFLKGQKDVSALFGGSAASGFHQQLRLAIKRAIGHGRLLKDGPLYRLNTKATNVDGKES
`CATTCAGC` gave an E-score of -0.0403.
The E-score of `ACCCCAGG` is reported as -0.0867.
The E-score of `ACCCGCAG` is reported as 0.169.
`ATGCATTC` gave an E-score of -0.104.
`AGGTGAAC` gave an E-score of -0.0776.
For `CGACCGCG`, the E-score was 0.366.
`ATTACTCA` has an E-score of -0.113.
`ACACAGCC` has an E-score of -0.034.
`GCAGGCGC` gave an E-score of 0.205.
With `AATCCAGG` the E-score was -0.208.
The E-score of `CGTAAAAG` is reported as 0.15.
The E-score of `TACGACCA` is reported as -0.081.
`ATAATCCA` gave an E-score of -0.102.
For `CTTACGAA`, the E-score was -0.174.
`AGCAGGAA` gave an E-score of -0.142.
With `GCATAGGA` the E-score was -0.0529.
With `ACATCTCT` the E-score was -0.0369.
`AACTCTCA` gave an E-score of -0.0857.
With `AGCTCACC` the E-score was -0.152.
With `ACCATGAC` the E-score was 0.0324.
For `GACTGGCA`, the E-score was -0.113.

Sample 2 — technique: competition protein-binding microarray; molecule type: double-stranded DNA, one strand shown; sample: in vitro; concentration: 2 µM; together with: Pho4 competitor, 0.05 µM; reading: higher = stronger binding
Target: Centromere-binding protein 1, full length, His-tagged (CBF1, Saccharomyces cerevisiae, UniProt P17106, residues 1-351)
Sequence of UniProt P17106 (whole entry, looked up): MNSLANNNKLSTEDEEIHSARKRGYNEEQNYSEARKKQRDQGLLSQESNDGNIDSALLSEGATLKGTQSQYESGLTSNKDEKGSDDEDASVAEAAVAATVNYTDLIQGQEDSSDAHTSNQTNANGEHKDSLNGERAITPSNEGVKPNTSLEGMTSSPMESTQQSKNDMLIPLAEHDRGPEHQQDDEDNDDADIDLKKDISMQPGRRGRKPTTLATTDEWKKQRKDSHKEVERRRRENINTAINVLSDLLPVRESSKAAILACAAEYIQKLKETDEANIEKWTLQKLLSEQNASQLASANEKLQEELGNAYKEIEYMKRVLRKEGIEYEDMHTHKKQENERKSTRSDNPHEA
Notes: whole 60-bp probe, lowest competitor level
`CGTAAACCTGACACCCTCGTGGGAGGAGCGCGCCCCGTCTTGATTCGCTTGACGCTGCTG` has a fluorescence intensity of 68.1 a.u.
For `GTCTTGTCTCATTGGCAAGTGGGTGTCCCCACTTCAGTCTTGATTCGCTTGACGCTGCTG`, the fluorescence intensity was 60.7 a.u.
`CTTCTGTAAATTTGTAGCGTGGGTGGACGCGCCCCGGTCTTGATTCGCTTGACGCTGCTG` has a fluorescence intensity of 80.7 a.u.
The fluorescence intensity of `AGACGTTGAGAAGTCCTCGTGAATAATCTGAATGACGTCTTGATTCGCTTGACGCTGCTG` is reported as 131 a.u.
`AAAGCGGTAATTTGCCCAGTGGGTGCAGATATCTATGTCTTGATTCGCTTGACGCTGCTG` has a fluorescence intensity of 66.1 a.u.
`GCAGAGGAGATCAGTCTCGTGAAGTGGATGGTTTCCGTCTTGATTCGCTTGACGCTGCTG` gave a fluorescence intensity of 105 a.u.
For `TTTGAAAAAACCCATCACGCAGTGGCCGATGTAATTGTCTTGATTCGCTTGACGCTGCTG`, the fluorescence intensity was 99.3 a.u.
For `TGCGCAACAACTTGAAAAGTGGGTGTATGTCTAGAAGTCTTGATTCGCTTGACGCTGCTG`, the fluorescence intensity was 78.3 a.u.
For `TTGCATTTCGGGCCTTTCGTGCCGAACTTTGCCAGTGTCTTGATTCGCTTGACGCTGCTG`, the fluorescence intensity was 70.4 a.u.
`CTTCTGTAAATTTGGGCTGTGGGTGGACGCGCCCCGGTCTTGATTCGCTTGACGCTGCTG` gave a fluorescence intensity of 76.4 a.u.
With `TCCTTGTCAACGCCGTGCGTGACGGTATGATTCACAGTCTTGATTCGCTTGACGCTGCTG` the fluorescence intensity was 84.1 a.u.
With `TAAGATTCGCTCAAACACATGCTCTTTCCAACGCTGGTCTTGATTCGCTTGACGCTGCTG` the fluorescence intensity was 106 a.u.
The fluorescence intensity of `CTTTCCCGATCTTGTCACCAAACTTTAGCACATTTGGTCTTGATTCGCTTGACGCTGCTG` is reported as 74.5 a.u.
For `ACAGCGTCGGCGGGCCACGTGCGGGAGGAGGGGCCGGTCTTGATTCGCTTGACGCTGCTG`, the fluorescence intensity was 731 a.u.
`ACTGCAAGCGACTATCATGTGATACGATAGCCGGGTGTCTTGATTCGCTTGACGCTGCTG` has a fluorescence intensity of 666 a.u.
With `AGTACAGTCTTGGACAATGTGACAGGGACCCTTGAAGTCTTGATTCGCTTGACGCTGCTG` the fluorescence intensity was 79.1 a.u.
For `GTCTTGTCTCATTGCACCGTGGGTGTCCCCACTTCAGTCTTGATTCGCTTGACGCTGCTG`, the fluorescence intensity was 81.2 a.u.
The fluorescence intensity of `AGGATCTCTTAGGAATTCGTGACGGGGTATCCCATTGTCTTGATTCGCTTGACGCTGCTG` is reported as 55.7 a.u.
For `TGGTTAACTAAACGTAATGTGACAGTATCATTGAAAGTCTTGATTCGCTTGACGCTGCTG`, the fluorescence intensity was 106 a.u.

Sample 3 — technique: RNA Bind-n-Seq; molecule type: RNA; sample: in vitro; concentration: 365 nM; reference: no-protein control; reading: higher = stronger binding
Target: RNA binding protein fox-1 homolog 2, RRM domain, GST-SBP tag (RBFOX2, Homo sapiens, UniProt O43251-10, residues 100-194)
Notes: natural RNA segment, single round, ends assumed
Construct (chain): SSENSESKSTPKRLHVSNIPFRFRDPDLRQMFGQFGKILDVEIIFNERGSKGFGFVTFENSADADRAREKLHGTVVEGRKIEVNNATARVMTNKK
`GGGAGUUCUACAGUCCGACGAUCCCCCUGCACCCCUGGAAGCCCAGCACCGGGGCCAGCAGGCUGUGUUCCGUGCUUGCCAACCUAGACCCUGGCAUUAGAAAUUGUUUUGUCAGCAGUCUCUGCCCUCUCGAUGGAAUUCUCGGGUGCCAA` — result for “RBNS enrichment (R)”: 0.406.
`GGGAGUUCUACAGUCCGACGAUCAAAUACAAUUCCAUUAACUACAUAGAAACUAUUAAGAAAGAGAGAAUCAAAAAUAUUUUUGUGAGGGAGUCGGUCCCAGGCAGUUUGAUGCUCUGUGGAAGGAGGCGGGAUGGAAUUCUCGGGUGCCAA`: “RBNS enrichment (R)” 0.497.
`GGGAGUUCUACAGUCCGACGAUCCUAAAAUGUAGAGUUUUUUUGAUUGAGUAAUUAUACUUACUACUUAAUAAAUACUUAUUAAAAUGCUUAUUCUAAAGUACUAUGAUUUUAGUAAUGCUAUCAGUCCUCCAUGGAAUUCUCGGGUGCCAA`: “RBNS enrichment (R)” 0.651.
For `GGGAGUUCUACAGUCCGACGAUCACGGUGAAACGGCCCUAGGAGGGUCGCUCUAGUUGAACUCUCCAGGCAGGACCUUAUGCUCAGAAAUCUUUGUAUAGUUUUAAAUUUUUGAGGAGUAUCUCUGCUCGGAAUGGAAUUCUCGGGUGCCAA`, “RBNS enrichment (R)” read 0.722.
For `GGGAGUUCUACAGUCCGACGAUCUCGUGUCCAGAGAGGGACAGGGUCUCAUUGUCACCCUCCAAAUACAUAAAGGCUGGUUCAGAAUGUUCUACUCUGUCUCUUUGUUUGUGGUCUAGUUGUCCCUGUUGGUUUGGAAUUCUCGGGUGCCAA`, “RBNS enrichment (R)” read 0.897.
Under “RBNS enrichment (R)”, `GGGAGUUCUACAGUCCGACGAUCAAUCACCAGCAGGAGGGUCUGCCUGCCACUGGGAGCCUUGGGGAGGCUGGGAGCCUUAGAGAAACGCAAGCUCACGCCUUCAUAAAUAUGCAGUUUCCUGCUUUCUGCCCUGGAAUUCUCGGGUGCCAA` is recorded as 0.558.
Under “RBNS enrichment (R)”, `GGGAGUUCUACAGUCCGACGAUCAACAGAUUGAGGCACUGACGCAGCCAGCUUAGCCCAGCAUUACUGUCUCUGUUGUGAGCUUGCUCUUUGUUUUAAAAGGUGCCAGGGGUACAUUUUUGCACUGAAACCUAUGGAAUUCUCGGGUGCCAA` is recorded as 0.346.
`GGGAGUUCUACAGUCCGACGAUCUUUUUACCUGUAUUGCAUUUUCCCCCUAGAGAAAUAGAUCAAAAGAGCACAAGAGUAUGCGUACAUAGUUUACCAGGUAGUAGAAGUGUGUUAAAAUGUUCCUGUAAAAGUGGAAUUCUCGGGUGCCAA`: “RBNS enrichment (R)” 4.37.

Sample 4 — technique: universal PBM; molecule type: double-stranded DNA, one strand shown; sample: in vitro; concentration: not given; reading: higher = stronger binding
Target: Sal-like protein 4, full length isoform B (SALL4, Homo sapiens, UniProt Q9UJQ4-2, residues 1-616)
Notes: 8-mer, flanks averaged, mean of replicates
Target sequence (chain): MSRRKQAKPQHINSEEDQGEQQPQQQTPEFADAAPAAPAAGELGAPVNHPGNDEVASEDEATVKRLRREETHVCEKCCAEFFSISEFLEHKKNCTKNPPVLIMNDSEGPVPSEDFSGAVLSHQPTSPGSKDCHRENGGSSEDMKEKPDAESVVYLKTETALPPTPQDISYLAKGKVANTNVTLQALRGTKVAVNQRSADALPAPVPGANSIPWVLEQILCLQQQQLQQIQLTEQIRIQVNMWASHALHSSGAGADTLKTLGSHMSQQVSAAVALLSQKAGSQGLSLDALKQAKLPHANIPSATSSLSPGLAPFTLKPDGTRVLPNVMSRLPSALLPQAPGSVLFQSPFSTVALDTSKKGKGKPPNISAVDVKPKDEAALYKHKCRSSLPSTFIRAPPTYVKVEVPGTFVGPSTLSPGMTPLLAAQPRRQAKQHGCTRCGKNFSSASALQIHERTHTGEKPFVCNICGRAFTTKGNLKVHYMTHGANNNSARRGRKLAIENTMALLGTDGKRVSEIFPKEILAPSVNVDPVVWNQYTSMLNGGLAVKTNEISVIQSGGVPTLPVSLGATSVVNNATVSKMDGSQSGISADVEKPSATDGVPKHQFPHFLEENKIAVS
For `AGTCTTAA`, the E-score was 0.0942.
With `GCATGCCA` the E-score was -0.251.
`ACCAATAT` has an E-score of 0.324.
`TAAGTCGA` has an E-score of 0.127.
The E-score of `GTATGGTA` is reported as 0.133.
With `AGCTTTTA` the E-score was 0.0661.
The E-score of `GGCTGGAC` is reported as -0.284.
With `CTGCGACC` the E-score was -0.181.
With `CTTTTCAA` the E-score was 0.253.
With `CGGTCCGC` the E-score was -0.317.
With `GTGCTAAA` the E-score was 0.0619.
With `TATAGTAA` the E-score was 0.295.
The E-score of `CGAGAACC` is reported as -0.127.
For `CAATGATC`, the E-score was 0.0448.
The E-score of `GAACAGGA` is reported as -0.165.
For `CACCGTGC`, the E-score was -0.191.
For `AATCCGCA`, the E-score was -0.117.
With `GTTCACGA` the E-score was -0.0922.
`TGATCGCA` gave an E-score of 0.0876.

For quick reference, copied from above (sample 1):
The E-score of `TACGACCA` is reported as -0.081.
For `GACTGGCA`, the E-score was -0.113.
`ACACAGCC` has an E-score of -0.034.
`AACTCTCA` gave an E-score of -0.0857.
`ATGCATTC` gave an E-score of -0.104.
`ATAATCCA` gave an E-score of -0.102.
With `GCATAGGA` the E-score was -0.0529.
With `AGCTCACC` the E-score was -0.152.
`GCAGGCGC` gave an E-score of 0.205.
`CATTCAGC` gave an E-score of -0.0403.
